Assay results of several laboratories.
Each line is one published result; not all experiments were run side by side. Several values in a cell are separate wells, animals, samples, runs or records. Numbers after ± are the reported error.
Pick1 PDZ domain: PRKCA-binding protein, PDZ domain (Pick1, Rattus norvegicus, UniProt Q9EP80)
Glutamate receptor ionotropic, kainate 1: Glutamate receptor ionotropic, kainate 1 (Rattus norvegicus, UniProt P22756)
FOLH1: Glutamate carboxypeptidase 2 (FOLH1, Homo sapiens, UniProt Q04609)
MAPK14: Mitogen-activated protein kinase 14 (MAPK14, Homo sapiens, UniProt Q16539)
WEE1/CRBN: WEE1/CRBN (Homo sapiens, UniProt P30291+Q96SW2)
MAPK8: Mitogen-activated protein kinase 8 (MAPK8, Homo sapiens, UniProt P45983)

Chains of the proteins cited; added tags and fusions are not shown. Residues count along the entry.
UniProt Q9EP80, whole entry: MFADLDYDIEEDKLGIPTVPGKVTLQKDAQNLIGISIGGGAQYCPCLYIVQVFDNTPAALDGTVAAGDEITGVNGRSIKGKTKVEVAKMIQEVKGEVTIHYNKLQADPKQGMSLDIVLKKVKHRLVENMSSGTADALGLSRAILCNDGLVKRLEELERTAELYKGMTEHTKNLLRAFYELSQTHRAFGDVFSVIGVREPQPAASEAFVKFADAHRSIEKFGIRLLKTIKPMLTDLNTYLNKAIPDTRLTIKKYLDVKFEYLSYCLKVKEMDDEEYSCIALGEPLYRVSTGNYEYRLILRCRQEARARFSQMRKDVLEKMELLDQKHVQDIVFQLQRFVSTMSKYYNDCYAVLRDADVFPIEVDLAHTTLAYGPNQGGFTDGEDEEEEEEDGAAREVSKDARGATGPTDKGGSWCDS
UniProt P22756, 31-920 isoform 4 limits assumed: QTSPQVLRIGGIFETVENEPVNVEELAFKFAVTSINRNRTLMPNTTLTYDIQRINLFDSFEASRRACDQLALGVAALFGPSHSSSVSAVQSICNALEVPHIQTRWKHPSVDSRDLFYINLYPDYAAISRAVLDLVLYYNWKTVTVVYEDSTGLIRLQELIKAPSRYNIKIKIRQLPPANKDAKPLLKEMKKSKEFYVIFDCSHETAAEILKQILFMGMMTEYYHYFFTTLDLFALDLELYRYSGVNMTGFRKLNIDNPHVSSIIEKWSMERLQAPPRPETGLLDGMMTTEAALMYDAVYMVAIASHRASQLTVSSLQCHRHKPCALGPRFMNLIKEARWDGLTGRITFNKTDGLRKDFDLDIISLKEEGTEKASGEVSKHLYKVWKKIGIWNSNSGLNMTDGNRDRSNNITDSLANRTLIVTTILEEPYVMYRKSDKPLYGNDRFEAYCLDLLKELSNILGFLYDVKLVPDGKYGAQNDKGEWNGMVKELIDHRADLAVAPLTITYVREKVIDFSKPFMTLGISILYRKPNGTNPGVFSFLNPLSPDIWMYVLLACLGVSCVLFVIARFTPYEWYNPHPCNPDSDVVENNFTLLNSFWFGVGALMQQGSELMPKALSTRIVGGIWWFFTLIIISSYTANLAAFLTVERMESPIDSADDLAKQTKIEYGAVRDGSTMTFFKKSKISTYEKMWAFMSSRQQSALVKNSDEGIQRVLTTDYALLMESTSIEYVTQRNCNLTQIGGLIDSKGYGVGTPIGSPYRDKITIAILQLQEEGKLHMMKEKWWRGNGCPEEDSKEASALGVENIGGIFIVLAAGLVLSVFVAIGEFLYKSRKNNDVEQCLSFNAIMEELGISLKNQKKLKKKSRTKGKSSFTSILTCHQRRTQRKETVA
UniProt Q04609, whole entry: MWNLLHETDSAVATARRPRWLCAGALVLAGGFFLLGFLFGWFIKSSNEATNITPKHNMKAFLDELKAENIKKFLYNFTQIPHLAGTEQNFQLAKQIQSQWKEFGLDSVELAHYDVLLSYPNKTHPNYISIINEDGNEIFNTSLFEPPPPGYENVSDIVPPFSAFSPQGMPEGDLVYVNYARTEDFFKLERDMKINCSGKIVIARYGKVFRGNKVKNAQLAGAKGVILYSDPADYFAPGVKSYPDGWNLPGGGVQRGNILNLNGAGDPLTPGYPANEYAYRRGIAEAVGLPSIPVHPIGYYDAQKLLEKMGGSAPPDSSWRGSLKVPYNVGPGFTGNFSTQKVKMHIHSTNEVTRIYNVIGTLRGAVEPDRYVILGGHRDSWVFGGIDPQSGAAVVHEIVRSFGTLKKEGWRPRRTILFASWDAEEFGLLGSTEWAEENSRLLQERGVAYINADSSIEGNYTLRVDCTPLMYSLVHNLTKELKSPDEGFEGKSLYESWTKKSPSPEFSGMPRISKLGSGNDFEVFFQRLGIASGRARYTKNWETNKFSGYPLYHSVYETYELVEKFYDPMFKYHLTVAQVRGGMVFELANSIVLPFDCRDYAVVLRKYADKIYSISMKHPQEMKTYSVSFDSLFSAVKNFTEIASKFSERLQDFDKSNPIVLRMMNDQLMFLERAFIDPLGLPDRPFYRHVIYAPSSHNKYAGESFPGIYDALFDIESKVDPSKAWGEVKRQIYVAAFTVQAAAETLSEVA
UniProt Q16539, whole entry: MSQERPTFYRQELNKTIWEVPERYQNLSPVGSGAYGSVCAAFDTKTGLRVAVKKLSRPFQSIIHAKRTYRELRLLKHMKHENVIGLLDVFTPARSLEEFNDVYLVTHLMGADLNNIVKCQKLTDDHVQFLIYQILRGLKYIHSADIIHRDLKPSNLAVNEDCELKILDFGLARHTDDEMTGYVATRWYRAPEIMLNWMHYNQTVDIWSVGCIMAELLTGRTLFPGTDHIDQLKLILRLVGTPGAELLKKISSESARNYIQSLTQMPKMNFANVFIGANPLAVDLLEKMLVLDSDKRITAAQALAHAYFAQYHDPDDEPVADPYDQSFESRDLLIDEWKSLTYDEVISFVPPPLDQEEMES
UniProt Q96SW2, whole entry: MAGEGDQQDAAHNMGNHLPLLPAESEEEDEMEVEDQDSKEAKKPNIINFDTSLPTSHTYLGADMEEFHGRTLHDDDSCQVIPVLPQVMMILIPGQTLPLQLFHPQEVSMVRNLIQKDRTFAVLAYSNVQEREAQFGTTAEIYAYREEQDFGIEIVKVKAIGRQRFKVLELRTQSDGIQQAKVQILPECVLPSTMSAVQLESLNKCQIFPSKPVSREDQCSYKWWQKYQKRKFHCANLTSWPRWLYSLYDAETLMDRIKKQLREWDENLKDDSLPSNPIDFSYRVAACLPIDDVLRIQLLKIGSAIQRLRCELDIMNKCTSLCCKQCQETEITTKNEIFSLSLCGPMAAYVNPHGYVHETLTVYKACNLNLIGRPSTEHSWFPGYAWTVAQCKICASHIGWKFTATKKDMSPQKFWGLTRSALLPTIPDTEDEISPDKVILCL
UniProt P45983, whole entry: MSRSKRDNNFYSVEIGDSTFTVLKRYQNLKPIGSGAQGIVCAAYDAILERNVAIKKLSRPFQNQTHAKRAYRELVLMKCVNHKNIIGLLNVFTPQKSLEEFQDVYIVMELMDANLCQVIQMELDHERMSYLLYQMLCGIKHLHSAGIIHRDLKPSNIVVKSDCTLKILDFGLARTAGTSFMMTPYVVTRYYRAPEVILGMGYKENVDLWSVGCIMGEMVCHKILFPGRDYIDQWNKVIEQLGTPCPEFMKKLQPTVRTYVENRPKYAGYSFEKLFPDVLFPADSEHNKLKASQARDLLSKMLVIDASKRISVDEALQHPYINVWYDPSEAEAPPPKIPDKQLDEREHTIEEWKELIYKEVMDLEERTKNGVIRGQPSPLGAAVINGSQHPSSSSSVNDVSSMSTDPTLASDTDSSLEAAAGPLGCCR
UniProt P28867, 231-280 limits assumed: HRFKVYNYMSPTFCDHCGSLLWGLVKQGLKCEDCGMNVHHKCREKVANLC
UniProt P30419, whole entry: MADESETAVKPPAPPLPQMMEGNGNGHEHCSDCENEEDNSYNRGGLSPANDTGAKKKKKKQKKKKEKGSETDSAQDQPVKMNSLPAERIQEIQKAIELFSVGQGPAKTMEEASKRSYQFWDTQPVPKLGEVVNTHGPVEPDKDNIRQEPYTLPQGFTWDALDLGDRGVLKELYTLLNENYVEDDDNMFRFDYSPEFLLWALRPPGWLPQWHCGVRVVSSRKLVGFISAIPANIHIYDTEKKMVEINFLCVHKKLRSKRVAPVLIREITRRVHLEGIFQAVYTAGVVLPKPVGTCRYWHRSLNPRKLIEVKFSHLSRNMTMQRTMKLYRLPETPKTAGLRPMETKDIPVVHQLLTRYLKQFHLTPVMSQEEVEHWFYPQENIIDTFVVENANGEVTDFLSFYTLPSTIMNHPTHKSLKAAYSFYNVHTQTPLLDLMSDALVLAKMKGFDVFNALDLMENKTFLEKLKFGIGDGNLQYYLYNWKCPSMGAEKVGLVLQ
UniProt Q05655, whole entry: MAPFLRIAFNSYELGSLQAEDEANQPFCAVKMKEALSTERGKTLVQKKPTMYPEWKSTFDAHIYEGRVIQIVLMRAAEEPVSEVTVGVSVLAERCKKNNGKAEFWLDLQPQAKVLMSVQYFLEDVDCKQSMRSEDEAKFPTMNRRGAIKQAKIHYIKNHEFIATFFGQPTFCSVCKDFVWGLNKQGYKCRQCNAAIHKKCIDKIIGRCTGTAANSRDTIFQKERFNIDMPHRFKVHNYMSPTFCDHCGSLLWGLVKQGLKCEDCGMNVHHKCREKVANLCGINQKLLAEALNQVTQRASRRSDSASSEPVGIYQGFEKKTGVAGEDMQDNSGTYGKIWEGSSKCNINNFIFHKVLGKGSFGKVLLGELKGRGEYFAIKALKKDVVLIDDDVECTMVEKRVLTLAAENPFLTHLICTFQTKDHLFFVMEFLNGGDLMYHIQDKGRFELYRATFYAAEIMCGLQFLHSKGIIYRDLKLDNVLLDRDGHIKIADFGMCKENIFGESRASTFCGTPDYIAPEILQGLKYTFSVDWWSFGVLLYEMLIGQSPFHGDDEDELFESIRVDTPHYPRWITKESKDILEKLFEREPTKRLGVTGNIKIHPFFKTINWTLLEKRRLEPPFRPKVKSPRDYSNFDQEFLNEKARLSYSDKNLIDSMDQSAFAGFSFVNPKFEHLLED
UniProt P13569, whole entry: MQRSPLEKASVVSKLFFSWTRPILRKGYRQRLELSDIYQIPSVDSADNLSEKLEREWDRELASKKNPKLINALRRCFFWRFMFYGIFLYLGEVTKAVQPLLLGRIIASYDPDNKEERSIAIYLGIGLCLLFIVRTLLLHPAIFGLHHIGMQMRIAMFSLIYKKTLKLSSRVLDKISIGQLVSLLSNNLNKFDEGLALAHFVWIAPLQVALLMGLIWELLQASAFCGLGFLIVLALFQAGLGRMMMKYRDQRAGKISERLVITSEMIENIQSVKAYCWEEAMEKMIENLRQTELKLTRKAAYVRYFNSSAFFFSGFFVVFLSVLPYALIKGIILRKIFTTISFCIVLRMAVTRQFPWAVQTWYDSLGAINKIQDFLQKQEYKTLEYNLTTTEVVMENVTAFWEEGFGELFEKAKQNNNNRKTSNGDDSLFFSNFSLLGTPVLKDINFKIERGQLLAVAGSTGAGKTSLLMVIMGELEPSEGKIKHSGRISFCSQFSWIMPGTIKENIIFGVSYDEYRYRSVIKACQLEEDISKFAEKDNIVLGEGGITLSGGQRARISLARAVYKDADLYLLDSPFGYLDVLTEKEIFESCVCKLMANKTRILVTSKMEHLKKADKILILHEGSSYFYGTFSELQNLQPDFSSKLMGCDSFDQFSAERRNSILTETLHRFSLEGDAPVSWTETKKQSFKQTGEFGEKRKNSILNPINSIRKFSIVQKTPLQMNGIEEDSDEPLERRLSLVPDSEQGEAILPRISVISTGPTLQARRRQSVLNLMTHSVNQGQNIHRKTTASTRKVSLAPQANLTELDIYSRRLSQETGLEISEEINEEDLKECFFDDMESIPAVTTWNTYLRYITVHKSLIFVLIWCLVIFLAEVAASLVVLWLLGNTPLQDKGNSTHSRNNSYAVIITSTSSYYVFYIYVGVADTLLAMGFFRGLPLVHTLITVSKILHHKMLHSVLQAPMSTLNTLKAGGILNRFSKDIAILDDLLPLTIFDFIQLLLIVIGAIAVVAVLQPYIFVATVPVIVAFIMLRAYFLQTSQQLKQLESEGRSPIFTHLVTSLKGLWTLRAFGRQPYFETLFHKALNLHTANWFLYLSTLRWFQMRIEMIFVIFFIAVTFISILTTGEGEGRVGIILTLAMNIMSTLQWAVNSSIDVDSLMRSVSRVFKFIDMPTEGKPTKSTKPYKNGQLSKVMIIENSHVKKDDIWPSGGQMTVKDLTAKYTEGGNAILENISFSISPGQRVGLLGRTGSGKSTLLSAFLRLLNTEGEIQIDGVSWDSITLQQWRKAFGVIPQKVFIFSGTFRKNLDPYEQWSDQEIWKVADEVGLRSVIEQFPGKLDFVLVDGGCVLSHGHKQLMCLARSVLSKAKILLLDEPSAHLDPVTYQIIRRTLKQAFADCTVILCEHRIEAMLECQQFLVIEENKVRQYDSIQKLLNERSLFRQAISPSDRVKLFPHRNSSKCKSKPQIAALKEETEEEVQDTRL
UniProt Q07440, whole entry P104K/C113S, looked up: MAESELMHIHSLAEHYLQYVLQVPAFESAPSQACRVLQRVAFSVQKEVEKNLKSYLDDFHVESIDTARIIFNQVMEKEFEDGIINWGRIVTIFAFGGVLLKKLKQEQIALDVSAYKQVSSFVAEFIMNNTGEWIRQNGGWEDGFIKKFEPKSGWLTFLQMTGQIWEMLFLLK
UniProt O75716, 13-305 limits assumed: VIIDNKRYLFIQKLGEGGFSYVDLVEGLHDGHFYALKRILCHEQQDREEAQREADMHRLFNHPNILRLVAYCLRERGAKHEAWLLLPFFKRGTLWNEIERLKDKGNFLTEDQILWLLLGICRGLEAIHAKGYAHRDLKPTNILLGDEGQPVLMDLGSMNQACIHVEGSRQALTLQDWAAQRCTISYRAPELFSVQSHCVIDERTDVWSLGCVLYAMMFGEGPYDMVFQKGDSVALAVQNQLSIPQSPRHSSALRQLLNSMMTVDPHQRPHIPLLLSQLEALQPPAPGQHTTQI

CC(C)OC(=O)NC(=O)/C(C#N)=C/c1ccc(Cl)c(Cl)c1 — Ki (Pick1 PDZ domain; binding, fluorescence polarization; with: labelled hDAT C-terminal peptide): 11000 ± 1700 nM
CC(C)[C@H](NC(=O)c1cc(C(=O)O)cc([C@H]2CCN[C@@H]2C(=O)O)c1)C(=O)O — Ki (Glutamate receptor ionotropic, kainate 1; binding, radioligand binding; Sf9 membranes; homomeric receptor, with: [3H]SYM2081): 4410 ± 630 nM
Nc1ncc(-c2ccc3ncnc(N4CCc5cc(F)c(Cl)cc54)c3c2)cn1 — AUC(0-t) (CD1 mouse, brain; oral, 100 mg/kg): 233 µg·h/mL
C/C(=N\OCCN1CCCc2ccccc2C1)c1ccc(C(F)(F)F)cc1 — Ki (Sigmar1 (Rattus norvegicus, UniProt Q9R0C9); radioligand binding; rat): 48.3 nM and 44.8 to 48.3 nM
CCCCCCCCC(CCCC=CCCCC(CCCCCCCC)C(=O)OCC1(CO)CC(=C(C)C)C(=O)O1)C(=O)OCC1(CO)CC(=C(C)C)C(=O)O1 (racemic) — Ki (Protein kinase C delta type, C1b domain (Prkcd, Mus musculus, UniProt P28867); binding, [3H]PDBu competition; 5 min, 37 °C, with: phosphatidylserine 100 µg/mL): 1.17 ± 0.05 nM
O=C(O)c1cc(C(=O)N[C@@H](Cc2c[nH]c3ccccc23)C(=O)O)cc([C@H]2CCN[C@@H]2C(=O)O)c1 — Ki (NMDA receptor (rat); binding, radioligand binding; rat cortical synaptosomes; with: [3H]CGP39653): 1000 to 5000 nM
CC1(C)C(=CC=C2CCCC(C=CC3=[N+](CCCCS(=O)(=O)O)c4ccc(S(=O)(=O)O)cc4C3(C)C)=C2Oc2ccc(S(=O)(=O)O)cc2)N(CCCCCC(=O)NCCOCCOCC(=O)NCCCC[C@H](NC(=O)N[C@@H](CCC(=O)O)C(=O)O)C(=O)O)c2ccc(S(=O)(=O)[O-])cc21 — Ki (FOLH1; enzyme activity, inhibitor; compound in water, with: [3H]NAAG 30 nM): 0.04 ± 0.01 nM
COc1cc2c(cc1OC)CN(C(C)CCc1ccc(O)cc1)CC2 (single isomer, unassigned) — Ki (SIGMAR1 (Cavia porcellus, UniProt Q60492); binding, radioligand displacement; guinea pig brain homogenate; with: [3H](+)-pentazocine): 87.6 ± 20.1 nM
Cc1cccc(CSc2nc(N)c(C#N)c(-c3cccc(F)c3)c2C#N)n1 — Ki (ADORA2A (Homo sapiens, UniProt P29274); radioligand competition binding; HEK293 membranes; 1 h, 25 °C, with: [3H]ZM241385 0.8 nM): 72 ± 24 nM
CCCCOC(=O)[C@@]12C[C@@H]1[C@@H](n1cnc3c(NC)nc(C#Cc4ccc(Cl)s4)nc31)[C@H](O)[C@@H]2O — Ki (SLC6A2 (Homo sapiens, UniProt P23975); binding, radioligand binding; HEK293; with: [3H]nisoxetine): 4900 nM
COC(=O)C1(C)C=C(C(=O)Nc2cccc3cccnc23)C(=O)CC1 (centres unmarked) — Ki (MAPK14; D-peptide displacement, fluorescence polarization): 38900 ± 6200 nM
CCCCCCCCC(CCCCCCCCC=CCCCCCCCCC(CCCCCCCC)C(=O)OCC1(CO)CC(=C(C)C)C(=O)O1)C(=O)OCC1(CO)CC(=C(C)C)C(=O)O1 (racemic) — Ki (PRKCA (Homo sapiens, UniProt P17252); binding, [3H]PDBu competition; with: phosphatidylserine 100 µg/mL): 30.9 ± 3.3 nM
Nc1nc2ccccn2c1C(=O)c1ccc2c(c1)CN(C1CCC(=O)NC1=O)C2=O (centres unmarked) — DC50 (WEE1/CRBN; degrader, HiBiT luciferase; Jurkat (HiBiT-tagged); 5 h): 91 ± 30 nM
COC(=O)[C@@]1(C)C=C(C(=O)OCc2ccccc2)C(=O)CC1 — Ki (MAPK14; D-peptide displacement, fluorescence polarization): 4800 ± 400 nM
N=C(N)NCCC[C@H](NC(=O)c1cc(C(=O)O)cc([C@H]2CCN[C@@H]2C(=O)O)c1)C(=O)O — Ki (NMDA receptor (rat); binding, radioligand binding; rat cortical synaptosomes; with: [3H]CGP39653): 10000 to 50000 nM
CCCCCCCCCCCCCC[C@@H](O)[C@@H](O)[C@H](CO[C@H]1O[C@H](CO)[C@H](O)[C@H](O)[C@H]1O)NC(=O)CCCCCCCCCc1ccccc1 — Ki (Cd1d1, dimeric Ig fusion (Mus musculus, UniProt P11609); binding, competitive microarray binding; with: printed glycolipid 100 µM): 4300 ± 1200 nM
N#Cc1c(N)nc(SCc2ncc[nH]2)c(C#N)c1-c1cccc(O)c1 — Ki (ADORA2B (Homo sapiens, UniProt P29275); radioligand displacement; HEK293 membranes; with: 25 nM [3H]NECA): 4 ± 1.9 nM
COC(=O)[C@@H]1C(c2nc3cc(Cl)ccc3o2)=Cc2cc3c(cc2[C@H]1c1cc(OC)c(OC)c(OC)c1)OCO3 — selectivity index (Leishmania; mouse splenocytes; baseline: CC50 over amastigote EC50): > 8.4
C[C@H](NC(=O)c1cc(C(=O)O)cc([C@H]2CCN[C@@H]2C(=O)O)c1)C(=O)O — Ki (NMDA receptor (rat); binding, radioligand binding; rat cortical synaptosomes; with: [3H]CGP39653): 870 nM
Cc1ncsc1-c1ccc([C@H](C)NC(=O)[C@@H]2C[C@@H](O)CN2C(=O)[C@@H](NC(=O)CCCCCCC(=O)N2CCN(C[C@]3(C)CCC(c4ccc(Cl)cc4)=C(CN4CCN(c5ccc(C(=O)NS(=O)(=O)c6ccc(N[C@H](CCN7CCOCC7)CSc7ccccc7)c(S(=O)(=O)C(F)(F)F)c6)cc5)CC4)C3)CC2)C(C)(C)C)cc1 — mRNA level (measured: Cdkn2a and Cdkn1a; STAM mice NASH-HCC model, liver; intraperitoneal, 5 mg/kg twice weekly, from day 45): decreased
COC(=O)[C@@]1(C)C=C(C(=O)Nc2cccc(C(=O)NC34CC(Nc5nccc(-c6cccnc6)n5)(C3)C4)c2)C(=O)CC1 — remaining activity (MAPK9 (Homo sapiens, UniProt P45984); enzyme activity, inhibitor; 0.0007527 µM): 1 fraction of control
O=C(OCc1ccccc1)c1cccc(OC2CCNCC2)c1 — Ki (NMT1 (Homo sapiens, UniProt P30419); enzyme activity, inhibitor, CPM fluorescence): > 100000 nM
CC[N+]1=C(C=CC=CC=CC=C2N(CCCCCC(=O)NCCCC[C@H](NC(=O)N[C@@H](CCC(=O)O)C(=O)O)C(=O)O)c3ccc(S(=O)(=O)O)cc3C2(C)C)C(C)(C)c2cc(S(=O)(=O)[O-])ccc21 — Ki (FOLH1; enzyme activity, inhibitor; compound in water, with: [3H]NAAG 30 nM): 0.001 ± 0.0005 nM
CC(C)(C)OC(=O)C1=C[C@](C)(C(=O)OCC#Cc2ccncc2)CCC1=O — Ki (MAPK8; D-peptide displacement, fluorescence polarization): 2900 ± 1100 nM
CCCCCCCCC(CCCCCCCC=CCCCCCCCC(CCCCCCCC)C(=O)OCC1(CO)CC(=C(C)C)C(=O)O1)C(=O)OCC1(CO)CC(=C(C)C)C(=O)O1 (racemic) — Ki (PRKCD (Homo sapiens, UniProt Q05655); binding, [3H]PDBu competition; with: phosphatidylserine 100 µg/mL): 27.1 nM and 27.2 nM
O=C(CNc1ccc2ncccc2c1)N/N=C/c1cc(Br)c(O)c(Br)c1 — Ki (CFTR (Homo sapiens, UniProt P13569); apical chloride current, inhibitor; FRT cells expressing CFTR; basolateral membrane permeabilised): 25000 to 50000 nM
O=C(NCc1ccc(-c2cnco2)cc1)[C@@H]1C[C@@H](O)CN1C(=O)c1cccc(Br)c1 — Ki (von Hippel-Lindau disease tumor suppressor, with elongin B, C (VHL, Homo sapiens, UniProt P40337); inhibitor, fluorescence polarization; VHL-elonginB-elonginC complex; 1% DMSO, with: FAM-DEALA-Hyp-YIPD peptide): 23300 nM
Cc1ccc(NC(=O)c2cc3ccccc3c(N=Nc3ccccc3O)c2O)c(C)c1 — Ki (Bcl-2-related protein A1 (Mus musculus, UniProt Q07440, C113S/P104K); binding, inhibitor, fluorescence polarization; with: FITC-labelled Noxa peptide): 700 nM
O=C(O)c1cc(C(=O)N2CCC[C@H]2C(=O)O)cc([C@H]2CCN[C@@H]2C(=O)O)c1 — Ki (Glutamate receptor ionotropic, kainate 1; binding, radioligand binding; Sf9 membranes; homomeric receptor, with: [3H]SYM2081): 1440 ± 180 nM
CC1(C)C(=CC=C2CCCC(C=CC3=[N+](CCCCS(=O)(=O)O)c4ccc(S(=O)(=O)O)cc4C3(C)C)=C2Oc2ccc(S(=O)(=O)O)cc2)N(CCCCCC(=O)NCCCC[C@H](NC(=O)N[C@@H](CCC(=O)O)C(=O)O)C(=O)O)c2ccc(S(=O)(=O)[O-])cc21 — Ki (FOLH1; enzyme activity, inhibitor; compound in water, with: [3H]NAAG 30 nM): 0.07 ± 0.005 nM
CCCCCCCCCCCCc1ccc(C(=O)NC2(C(=N)N)CC2)cc1 — Ki (SPHK1 (Homo sapiens, UniProt Q9NYA1); inhibitor, FlashPlate): 300 nM
CC(C)(C)CC(C)(C)Nc1c(-c2ccc3c(c2)CN(C2CCC(=O)NC2=O)C3=O)nc2ccccn12 (centres unmarked) — DC50 (WEE1/CRBN; degrader, HiBiT luciferase; Jurkat (HiBiT-tagged); 5 h): 2 ± 0.8 nM
CCOC(=O)NC(=O)/C(C#N)=C/c1ccccc1 — Ki (Pick1 PDZ domain; binding, fluorescence polarization; with: labelled hDAT C-terminal peptide): 84000 ± 2200 nM
COC(=O)C1(C)C=C(C(=O)NC(C)(C)C)C(=O)CC1 (centres unmarked) — Ki (MAPK14; D-peptide displacement, fluorescence polarization): 74700 ± 14000 nM
NC(N)=NC(=O)N1CCc2c(F)ccc(-c3c(F)cc(F)cc3F)c2C1 — Ki (HTR1D (Homo sapiens, UniProt P28221); radioligand binding): 50 nM
CC(=O)N(CC#Cc1cccc(C(N)=O)c1)C[C@H]1C[C@@H](n2ccc3c(N)ncnc32)[C@H](O)[C@@H]1O — Ki (NNMT (Homo sapiens, UniProt P40261); enzyme activity, inhibitor): 78 nM
COC(=O)C1(C)C=C(C(=O)NCc2ccccc2)C(=O)CC1 (centres unmarked) — Ki (MAPK8; D-peptide displacement, fluorescence polarization): 97400 ± 24100 nM
COc1cc(Nc2ccnc3cc(-c4ccncc4)ccc23)cc(OC)c1OC — Ki (STK16 (Homo sapiens, UniProt O75716)): > 10000 nM

Repeated from above:
CCCCCCCCC(CCCCCCCC=CCCCCCCCC(CCCCCCCC)C(=O)OCC1(CO)CC(=C(C)C)C(=O)O1)C(=O)OCC1(CO)CC(=C(C)C)C(=O)O1 (racemic) — Ki (PRKCD (Homo sapiens, UniProt Q05655); binding, [3H]PDBu competition; with: phosphatidylserine 100 µg/mL): 27.1 nM and 27.2 nM
O=C(CNc1ccc2ncccc2c1)N/N=C/c1cc(Br)c(O)c(Br)c1 — Ki (CFTR (Homo sapiens, UniProt P13569); apical chloride current, inhibitor; FRT cells expressing CFTR; basolateral membrane permeabilised): 25000 to 50000 nM
O=C(NCc1ccc(-c2cnco2)cc1)[C@@H]1C[C@@H](O)CN1C(=O)c1cccc(Br)c1 — Ki (von Hippel-Lindau disease tumor suppressor, with elongin B, C (VHL, Homo sapiens, UniProt P40337); inhibitor, fluorescence polarization; VHL-elonginB-elonginC complex; 1% DMSO, with: FAM-DEALA-Hyp-YIPD peptide): 23300 nM
Cc1ccc(NC(=O)c2cc3ccccc3c(N=Nc3ccccc3O)c2O)c(C)c1 — Ki (Bcl-2-related protein A1 (Mus musculus, UniProt Q07440, C113S/P104K); binding, inhibitor, fluorescence polarization; with: FITC-labelled Noxa peptide): 700 nM
